Results collected from several papers.
Parts stem from different laboratories: compare values within a part only.

Sample 1 — method: RNA Bind-n-Seq; form: RNA; matrix: in vitro; tested at: 100 nM; reference: input RNA pool; direction: higher = stronger binding
Target: RING finger protein unkempt homolog, zinc fingers 1-6, SBP tag (UNK, Homo sapiens, UniProt Q9C0B0, residues 30-357)
UniProt Q9C0B0, sequence (30-357, looked up): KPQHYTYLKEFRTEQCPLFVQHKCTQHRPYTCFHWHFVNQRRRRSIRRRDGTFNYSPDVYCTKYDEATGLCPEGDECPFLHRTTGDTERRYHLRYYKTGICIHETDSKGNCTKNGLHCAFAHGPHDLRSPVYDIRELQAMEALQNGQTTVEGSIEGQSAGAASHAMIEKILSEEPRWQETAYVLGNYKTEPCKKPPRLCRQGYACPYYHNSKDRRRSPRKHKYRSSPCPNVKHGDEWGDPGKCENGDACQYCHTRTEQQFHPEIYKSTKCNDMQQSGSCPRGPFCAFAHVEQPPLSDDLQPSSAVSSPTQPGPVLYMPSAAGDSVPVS
Notes: RNA with constant flanks, vertebrate orthologous sites, ends assumed
`GGGAGUUCUACAGUCCGACGAUCCCCCAAGGGCUGGUAGAGUCGAGUCCCGUUCUUAGAGCGUUCCCUCUCCAUUUUGUGUCCCUCGGGGUGGCGUAGGGGGUGCGCGCACCCCGGCCCCGAGGCGCCAGUGCUUGUGGUCCACAACAGAGGAUUGAGCAUCA` has a bound/input enrichment of 0.503 ratio.
`GGGAGUUCUACAGUCCGACGAUCCUGAAGCUUUGUGUCUGGCUGCACCUGCAUAAGCUGCUACAAAUAGAAUAAAGAGUUUCAUGGCCUGUGUCUGCCACUGAGAUGCAUGGGGCACAUGGGCUUCGCACACAGUGGGUUUGGCAACAGAGGAUUGAGCAUCA` has a bound/input enrichment of 0.67 ratio.
For `GGGAGUUCUACAGUCCGACGAUCUAUCUUUAGGAUGAAGCUCUUACAUCAGGUGUCACGAGUCUGGAGAACAGAUGGGUUGACCAGUUGUAUUUACAAAUUACUCUCUGUGGAUUAUAAUCCUUUGUAUACCAACAUCACAGUCAACAGAGGAUUGAGCAUCA`, the bound/input enrichment was 0.212 ratio.

Sample 2 — method: RNA Bind-n-Seq; form: RNA; matrix: in vitro; tested at: 1 µM; notes: whole 134-nt RNA, ends assumed; together with: 150 mM KCl; reference: input library; direction: higher = stronger binding
Target: Ras GTPase-activating protein-binding protein 1, RRM domain (G3BP1, Homo sapiens, UniProt Q13283)
UniProt Q13283, sequence (whole entry, looked up): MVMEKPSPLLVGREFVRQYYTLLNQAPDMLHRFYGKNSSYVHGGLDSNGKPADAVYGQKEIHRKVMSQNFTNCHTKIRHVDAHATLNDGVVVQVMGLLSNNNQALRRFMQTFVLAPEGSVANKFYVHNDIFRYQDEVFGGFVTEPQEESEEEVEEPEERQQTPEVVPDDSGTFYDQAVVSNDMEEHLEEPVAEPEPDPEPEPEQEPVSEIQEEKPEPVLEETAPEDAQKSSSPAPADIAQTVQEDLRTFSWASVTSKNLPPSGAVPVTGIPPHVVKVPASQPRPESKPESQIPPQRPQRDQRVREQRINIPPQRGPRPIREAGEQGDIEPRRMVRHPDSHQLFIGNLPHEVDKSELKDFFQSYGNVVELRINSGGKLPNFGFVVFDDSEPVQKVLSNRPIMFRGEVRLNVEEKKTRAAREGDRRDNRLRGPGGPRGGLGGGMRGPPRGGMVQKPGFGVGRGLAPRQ
With `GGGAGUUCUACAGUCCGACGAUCCUCAAGUCCUGUGCUACACAUCGUAUGUACCGAAUCGGUUUUUGGUUUGGAGGAAAGUAUUAUGUUACGCCGUUCGGAUCUGCACUUCCAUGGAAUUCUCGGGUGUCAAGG` the log2 enrichment was -0.211.
`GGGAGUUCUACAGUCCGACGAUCUCCUCAAGUCCUGUGCUACACAUCGUAUGUACCGAAUCGGUGGUUUGGUGGAAAGUAUUAUGUUACGCCGUUCGGAUCUGCACUUCCAGCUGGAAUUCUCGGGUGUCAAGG` gave a log2 enrichment of -0.235.
`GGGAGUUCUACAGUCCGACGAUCGCAGGAAGUAAAAGCAAAUGGAAAUGCUUCGGAUAGUGGCAGGGGUGGGGGUUGCUAAGGAAAGGGUGGGAUGGGAGUGGGUAAAGAGUUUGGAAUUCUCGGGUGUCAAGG` gave a log2 enrichment of 0.927.
The log2 enrichment of `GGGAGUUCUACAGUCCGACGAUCACCAUGCAGGUCGGCAUCUUUGGGAAGUGGGGCAAGGGGGGGAUAGGGAGGGGGGUAACACUUUGGGAACAGGUGGUCCCAGGUCGUUUCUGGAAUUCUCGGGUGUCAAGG` is reported as -0.43.
For `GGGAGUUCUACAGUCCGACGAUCGUCCUGUGCUACACAUCGUAUGUACCGAAUCGGGGAAAAGGGGAAAAGGGGAAAAGGGAAAGUAUUAUGUUACGCCGUUCGGAUCUGCACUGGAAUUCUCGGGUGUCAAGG`, the log2 enrichment was 0.383.
With `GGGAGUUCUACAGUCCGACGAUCACCAUGCAGGUGGGCAUCUUUGGGAAGUGGGGCAAGGGGGGGAUAGGGAGGGGGGUAACGCUUUGGGAACAGGUGGUCCCAGGUCGUUUCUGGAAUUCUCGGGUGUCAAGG` the log2 enrichment was 0.928.
With `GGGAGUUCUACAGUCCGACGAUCAGUGACCAUUUUAGUUAAAUUUUGUUCCUCUUCCCCCUUUUCACUUUCCUGGAAGAUCGAUGUCCCGAUCAGGAAGGUAGAGAGUUUUCCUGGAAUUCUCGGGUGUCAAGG` the log2 enrichment was -0.343.

Sample 3 — method: aptamer microarray, sandwich; form: DNA with 2'F-ANA; matrix: in vitro; tested at: 200 nM; together with: Cy3 exosite-II aptamer, 400 nM; direction: higher = stronger binding; oligonucleotide: GGTTGGTGTGGTTGG
Target: Prothrombin, mature alpha-thrombin (F2, Homo sapiens, UniProt P00734)
Notes: whole 15-mer aptamer, many near background
For `2'F-ANA at 1 3 4 6 10 14 15`, “mean fluorescence intensity” read 62.8 a.u.
Under “mean fluorescence intensity”, `2'F-ANA at 1 4 6 8 9 12 13 15` is recorded as 601 a.u.
For `2'F-ANA at 2 8 9 11 12 14`, “mean fluorescence intensity” read 240 a.u.
For `2'F-ANA at 1 2 4 5 7 10 11 12 15`, “mean fluorescence intensity” read 62.7 a.u.
For `2'F-ANA at 2 6 7 8 12 15`, “mean fluorescence intensity” read 734 a.u.

Further values, each from its own experiment
The fold induction of `PhoQ, residues 284 288 289 292 302 303 GASLAW` is reported as 3.6 (PhoP, residues 12 14 15 18 19 LHSVW (Escherichia coli, UniProt P23836); Sort-seq, measured: YFP reporter; E. coli; PhoQ-PhoP variant library, together with: 10 µM Mg2+; reference: high Mg2+ state, higher = stronger signaling).
